Results from different studies.
Numbers after ± are the reported error.
Cell line: A2780

COc1ccc(COC[C@](O)(CNCc2ccc(F)cc2)[C@@H]2CC[C@@H](C)C[C@H]2OCc2ccc(OC)cc2)cc1  IC50 (cell growth or viability, MTT; 72 h): 1900 nM
CC12CCC3c4ccc(OCCCOc5no[n+]([O-])c5S(=O)(=O)c5ccccc5)cc4CCC3C1CCC2O (stereo not drawn)  IC50 (cell growth or viability, MTT; 48 h): 53 nM
Cc1c(C)n(-c2c(C(C)C)cccc2C(C)C)c(=[Se])n1-c1c(C(C)C)cccc1C(C)C.[Cl][Ag]  IC50 (cell growth or viability; 72 h, 3D culture): 18100 nM
Oc1ccccc1-n1nc(-c2ccccc2)n[n+]1-c1ccccc1  IC50 (cell growth or viability, resazurin; 72 h): 160000 nM
C#CCN(C(=O)OCc1ccc(C(=O)N(C)C)cc1)[c-]1cccc1.[Fe+2].c1cc[cH-]c1  IC50 (cell growth or viability, MTT; 48 h): 37100 nM
CC(C)c1cccc(C(C)C)c1N=[C](NCc1ccc(N)cc1)[AuH][Cl]  IC50 (cell growth or viability): 3600 nM
CC(C)=CCC1=C([O-])C(=O)c2ccccc2C1=O.O=[N+]([O-])[O-].[Cu+2].c1ccc(-c2cccc(-c3ccccn3)n2)nc1  IC50 (cell viability, MTT; 48 h): 500 ± 100 nM
[Cl][Au].[Se]=c1n(C23CC4CC(CC(C4)C2)C3)ccn1C12CC3CC(CC(C3)C1)C2  IC50 (cell growth or viability, MTT; 72 h): 600 nM
O=C(OCc1ccc(F)cc1)N(Cc1cccc(CN2CCCCC2)c1)[c-]1cccc1.[Fe+2].c1cc[cH-]c1  IC50 (cell growth or viability, MTT; 48 h): 7000 nM
[Cl][Pd-2]1([Cl])[N+](=P(c2ccccc2)(c2ccccc2)C2C=CC=C2)Cc2cccc[n+]21.[Cl][Pd-2]1([Cl])[N+](=P(c2ccccc2)(c2ccccc2)C2C=CC=C2)Cc2cccc[n+]21.[Fe+2]  IC50 (cell growth or viability, MTT; 74 h): 2000 nM
C[C@@H]1CC[C@@H]([C@](O)(COCc2ccccc2)Cn2cnc3ccccc32)[C@H](OCc2ccccc2)C1  IC50 (cell growth or viability, MTT; 72 h): 4300 nM
CC(C)c1cccc(C(C)C)c1[N+]#[C][Pt-]([Cl])([Cl])=[C](Nc1cccc(CN[C](NC(C)(C)C)=[Au][Cl])c1)Nc1c(C(C)C)cccc1C(C)C  IC50 (cell growth or viability): > 100000 nM
COc1ccccc1CNC[C@](O)(COCc1ccccc1)[C@@H]1CC[C@@H](C)C[C@H]1OCc1ccccc1  IC50 (cell growth or viability, MTT; 72 h): 2200 nM
C=C1C(=O)C23CCC4C(C)(C)CCCC4(C)C2C(O)CC1C3 (single isomer, unassigned)  IC50 (cell growth or viability, MTT): 900 nM
C[N+]1(C)CC[NH2+][Pt-2]1([OH])([Cl])([Cl])[O]C(=O)CCC(=O)OCCO  IC50 (cell viability, EZ4U; 96 h): 22000 ± 2000 nM
C[C@@H]1CC[C@@H]([C@](O)(CNCc2cccc(F)c2)COCc2ccccc2)[C@H](OCc2ccccc2)C1  IC50 (cell growth or viability, MTT; 72 h): 1400 nM
CC(C)(C)N=[C](NCc1ccc(N)cc1)[AuH][Cl]  IC50 (cell growth or viability): > 100000 nM
CC(C)=CCC1=C([O-])C(=O)c2ccccc2C1=O.CC(C)=CCC1=C([O-])C(=O)c2ccccc2C1=O.[Cu+2].c1ccc(-c2ccnc3c2ccc2c(-c4ccccc4)ccnc23)cc1  IC50 (cell viability, MTT; 72 h): 330 ± 10 nM
CC(C)c1cccc(C(C)C)c1-n1ccn(-c2c(C(C)C)cccc2C(C)C)c1=[Se].[Cl][Au]  IC50 (cell growth or viability; 72 h, 3D culture): 8700 nM
C=C1C(=O)[C@@]23CC[C@@H]4[C@](C)(COC(C)=O)CCC[C@@]4(CO)[C@@H]2[C@@H](O)C[C@@H]1C3  IC50 (cell growth or viability, MTT): 19500 nM
Cc1cc(C)c(N=[C](NCc2cccc(N)c2)[AuH][Cl])c(C)c1  IC50 (cell growth or viability): > 100000 nM
CC(=O)OC[C@H]1O[C@@H](Oc2ccc(C#[C][Pt+])cc2)[C@H](OC(C)=O)[C@@H](OC(C)=O)[C@@H]1OC(C)=O.O=S(=O)([O-])C(F)(F)F.c1ccc(-c2cccc(-c3ccccn3)n2)nc1  IC50 (cell growth or viability; 72 h): 3660 nM
CC(C)c1cccc(C(C)C)c1-n1c(Cl)c(Cl)n(-c2c(C(C)C)cccc2C(C)C)c1=[Se].[Cl][Au]  IC50 (cell growth or viability, MTT; 72 h): 400 nM
Cc1cc(C)c([N+]#[C][Pt-]([Cl])([Cl])=[C](Nc2cccc(CN[C](Nc3c(C)cc(C)cc3C)=[Au][Cl])c2)Nc2c(C)cc(C)cc2C)c(C)c1  IC50 (cell growth or viability): > 100000 nM
Oc1ccc(Br)cc1C=NNC(=S)Nc1ccccc1  IC50 (cell growth or viability, MTT; 72 h): 600 nM
CN(C)C(=O)c1ccc(COC(=O)N[c-]2cccc2)cc1.[Fe+2].c1cc[cH-]c1  IC50 (cell growth or viability, MTT; 48 h): 46100 nM
C[C@@H]1CC[C@@H]([C@@](O)(CNCc2ccc(F)cc2)COCc2ccc(F)cc2)[C@H](OCc2ccc(F)cc2)C1  IC50 (cell growth or viability, MTT; 72 h): 1400 nM
C=C1C(=O)[C@@]23CC[C@@H]4[C@](C)(COC(C)=O)CCC[C@@]4(C)[C@@H]2[C@@H](O)C[C@@H]1C3 (single isomer, unassigned)  IC50 (cell growth or viability, MTT): 2400 nM
CC12CCC3c4ccc(OCCCOc5no[n+]([O-])c5S(=O)(=O)c5ccccc5)c(Br)c4CCC3C1CCC2O (stereo not drawn)  IC50 (cell proliferation, MTT; 48 h): 29 nM
Cn1ccn(N=Cc2ccccc2SSc2ccccc2C=Nn2ccn(C)c2=S)c1=S  IC50 (cell growth or viability, MTT; 72 h): 210 nM
[Fe+2].c1ccc(P(=NCc2ccccn2)(c2ccccc2)[c-]2cccc2)cc1.c1ccc(P(=NCc2ccccn2)(c2ccccc2)[c-]2cccc2)cc1  IC50 (cell growth or viability, MTT; 74 h): 5300 nM
Cc1cc(C)c(N[C](NCc2cccc(N[C](Nc3c(C(C)C)cccc3C(C)C)=[Pd-]([Cl])([Cl])[C]#[N+]c3c(C(C)C)cccc3C(C)C)c2)=[Au][Cl])c(C)c1  IC50 (cell growth or viability): > 100000 nM
COc1cccc(CNC[C@@](O)(COCc2ccccc2)[C@@H]2CC[C@@H](C)C[C@H]2OCc2ccccc2)c1  IC50 (cell growth or viability, MTT; 72 h): 1400 nM
CC(C)c1cccc(C(C)C)c1N1CCN(c2c(C(C)C)cccc2C(C)C)C1=[Se].[Cl][Ag]  IC50 (cell growth or viability, MTT; 72 h): 600 nM
CC(C)c1cccc(C(C)C)c1[N+]#[C][Pt-2]([Cl])([Cl])[C]#[N+]c1c(C(C)C)cccc1C(C)C  IC50 (cell growth or viability): > 100000 nM
[Cl][Au-]1([Cl])[N+](=P(c2ccccc2)(c2ccccc2)C2C=CC=C2)Cc2cccc[n+]21.[Cl][Au-]1([Cl])[N+](=P(c2ccccc2)(c2ccccc2)C2C=CC=C2)Cc2cccc[n+]21.[Fe+2].[O-][Cl+3]([O-])([O-])[O-].[O-][Cl+3]([O-])([O-])[O-]  IC50 (cell growth or viability, MTT; 74 h): 2700 nM
Oc1ccccc1-c1nn(-c2ccccc2)[n+](-c2ccccc2)n1  IC50 (cell growth or viability, resazurin; 72 h): 74000 nM
C[C@@H]1CC[C@@H]([C@@](O)(CNCc2ccc(F)cc2)COCc2ccccc2)[C@H](OCc2ccccc2)C1  IC50 (cell growth or viability, MTT; 72 h): 4300 nM
Cc1cc(C)c([N+]#[C][Pt-]([Cl])([Cl])=[C](Nc2ccc(CN[C](Nc3c(C)cc(C)cc3C)=[Au][Cl])cc2)Nc2c(C)cc(C)cc2C)c(C)c1  IC50 (cell growth or viability): > 100000 nM

Some of these lines once more:
CC12CCC3c4ccc(OCCCOc5no[n+]([O-])c5S(=O)(=O)c5ccccc5)c(Br)c4CCC3C1CCC2O (stereo not drawn)  IC50 (cell proliferation, MTT; 48 h): 29 nM
Cc1c(C)n(-c2c(C(C)C)cccc2C(C)C)c(=[Se])n1-c1c(C(C)C)cccc1C(C)C.[Cl][Ag]  IC50 (cell growth or viability; 72 h, 3D culture): 18100 nM
C#CCN(C(=O)OCc1ccc(C(=O)N(C)C)cc1)[c-]1cccc1.[Fe+2].c1cc[cH-]c1  IC50 (cell growth or viability, MTT; 48 h): 37100 nM
CC(C)c1cccc(C(C)C)c1[N+]#[C][Pt-]([Cl])([Cl])=[C](Nc1cccc(CN[C](NC(C)(C)C)=[Au][Cl])c1)Nc1c(C(C)C)cccc1C(C)C  IC50 (cell growth or viability): > 100000 nM
CC(C)c1cccc(C(C)C)c1[N+]#[C][Pt-2]([Cl])([Cl])[C]#[N+]c1c(C(C)C)cccc1C(C)C  IC50 (cell growth or viability): > 100000 nM
O=C(OCc1ccc(F)cc1)N(Cc1cccc(CN2CCCCC2)c1)[c-]1cccc1.[Fe+2].c1cc[cH-]c1  IC50 (cell growth or viability, MTT; 48 h): 7000 nM
